Assay results gathered from unrelated publications.
Numbered parts are unrelated; each lists some results of a single study. Changes are numbered by the printed parent chain.
Sequence of UniProt Q16816 (whole entry, looked up): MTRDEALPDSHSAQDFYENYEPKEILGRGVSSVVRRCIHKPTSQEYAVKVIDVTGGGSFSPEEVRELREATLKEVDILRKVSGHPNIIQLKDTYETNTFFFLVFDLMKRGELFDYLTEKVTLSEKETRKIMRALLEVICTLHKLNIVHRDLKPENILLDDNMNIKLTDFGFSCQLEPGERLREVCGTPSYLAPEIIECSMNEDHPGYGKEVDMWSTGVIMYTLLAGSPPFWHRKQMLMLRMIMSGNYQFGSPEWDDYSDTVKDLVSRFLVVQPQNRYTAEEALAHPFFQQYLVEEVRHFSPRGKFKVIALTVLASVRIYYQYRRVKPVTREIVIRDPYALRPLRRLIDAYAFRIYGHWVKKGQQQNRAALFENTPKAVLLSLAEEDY
Sequence of UniProt O15146 (whole entry, looked up): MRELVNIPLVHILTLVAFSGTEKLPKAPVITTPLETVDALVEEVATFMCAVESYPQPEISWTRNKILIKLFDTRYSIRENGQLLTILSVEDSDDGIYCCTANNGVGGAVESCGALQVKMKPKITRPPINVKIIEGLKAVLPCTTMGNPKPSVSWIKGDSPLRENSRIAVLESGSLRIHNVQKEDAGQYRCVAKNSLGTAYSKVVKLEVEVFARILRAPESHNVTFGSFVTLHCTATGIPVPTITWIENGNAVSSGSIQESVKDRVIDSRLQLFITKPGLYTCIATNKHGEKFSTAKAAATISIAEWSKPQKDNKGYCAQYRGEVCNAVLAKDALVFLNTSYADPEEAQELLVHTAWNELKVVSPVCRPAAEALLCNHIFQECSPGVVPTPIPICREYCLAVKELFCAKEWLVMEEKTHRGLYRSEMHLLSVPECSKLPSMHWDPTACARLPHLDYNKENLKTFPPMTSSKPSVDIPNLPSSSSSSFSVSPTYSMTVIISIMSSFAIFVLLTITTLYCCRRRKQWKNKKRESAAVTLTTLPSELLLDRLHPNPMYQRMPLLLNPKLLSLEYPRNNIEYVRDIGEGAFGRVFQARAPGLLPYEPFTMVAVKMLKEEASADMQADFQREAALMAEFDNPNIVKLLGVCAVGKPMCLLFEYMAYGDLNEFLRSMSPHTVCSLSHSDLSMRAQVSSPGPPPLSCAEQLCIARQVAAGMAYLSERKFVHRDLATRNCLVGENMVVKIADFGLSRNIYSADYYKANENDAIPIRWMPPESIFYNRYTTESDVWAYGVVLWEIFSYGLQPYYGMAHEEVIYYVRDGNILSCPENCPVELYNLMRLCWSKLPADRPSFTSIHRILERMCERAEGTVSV
Sequence of UniProt Q16644 (whole entry, looked up): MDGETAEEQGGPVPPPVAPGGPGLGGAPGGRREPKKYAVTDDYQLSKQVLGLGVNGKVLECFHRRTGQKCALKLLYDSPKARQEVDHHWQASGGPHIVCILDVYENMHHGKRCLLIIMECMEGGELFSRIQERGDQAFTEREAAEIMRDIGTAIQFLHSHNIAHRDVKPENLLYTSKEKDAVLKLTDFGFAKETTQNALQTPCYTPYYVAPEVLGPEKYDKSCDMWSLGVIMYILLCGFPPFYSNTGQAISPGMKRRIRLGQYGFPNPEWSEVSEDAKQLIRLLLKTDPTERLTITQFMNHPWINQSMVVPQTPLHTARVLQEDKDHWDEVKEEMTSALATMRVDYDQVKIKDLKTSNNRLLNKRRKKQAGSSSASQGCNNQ

Study 1 — Structure (SMILES): O=C(O)/C=C/c1cc(Br)c(Br)c(Br)c1Br; read-out: enzyme activity; mode: inhibitor; concentration: 0.5 µM; reference: control
TSSK2 (Homo sapiens, UniProt Q96PF2) — remaining activity: 98.1%.
The remaining activity was 86.3% (MAPKAPK3 (Homo sapiens, UniProt Q16644)).
For PHKG1 (Homo sapiens, UniProt Q16816): remaining activity read 87.6%.

Study 2 — read-out: cell-free assay; technique: competition with immobilised ligand; concentration: 1 µM
Structure (SMILES): O=C(N1CCS(=O)(=O)CC1)N1C[C@H](c2ccc(OC(F)(F)F)cc2)C[C@H](c2nc(C3CC3)no2)C1
It gave 100% for remaining binding (MUSK (Homo sapiens, UniProt O15146)).
FLT3 (Homo sapiens, UniProt P36888, D835Y) — remaining binding: 100%.
MTOR (Homo sapiens, UniProt P42345) — remaining binding: 100%.

Study 3 — target: CCNE1, cyclin fold, Cln2 fusion (human); technique: yeast growth competition, sequencing; medium: yeast; setting: strong parent motif; reference: not given; reading: higher = stronger binding
Parent: CDC25A docking peptide (human); PPHRRRLLFACSP
For `PPHRRRLLDACSP [F9D]`, “normalised enrichment score” read -0.0138.
`YPHRRRLLFACSP [P1Y]` — result for “normalised enrichment score”: 1.25.
`PPHRRRLLFACSG [P13G]`: “normalised enrichment score” 1.45.
`PPHRRRLWFACSP [L8W]` — result for “normalised enrichment score”: 1.31.
`PPQRRRLLFACSP [H3Q]`: “normalised enrichment score” 0.691.
`PPHRRRLLFAHSP [C11H]` — result for “normalised enrichment score”: 1.02.
`PPHRRRLLPACSP [F9P]`: “normalised enrichment score” 0.117.
`PPHFRRLLFACSP [R4F]`: “normalised enrichment score” 1.19.

Study 4 — technique: RNA Bind-n-Seq; molecule type: RNA; medium: in vitro; concentration: 200 nM; setting: whole 134-nt RNA, ends assumed; added: 150 mM KCl; reference: input library; reading: higher = stronger binding
Target: Fragile X messenger ribonucleoprotein 1, C-terminal low-complexity region (Fmr1, Mus musculus, UniProt P35922)
Shared flanks, not repeated: GGGAGUUCUACAGUCCGACGAUC … UGGAAUUCUCGGGUGUCAAGG
With `AGUCCUGUGCUACACAUCGUAUGUACCGAAUCGGGAAAAAGGGUUUGGGUUUUUGGGAAAGUAUUAUGUUACGCCGUUCGGAUCUGCACU` the log2 enrichment was -0.00657.
`CCUGUGCUACACAUCGUAUGUACCGAAUCGGGCCCCCCCGGGCCCCCCCGGCCCCCCCGGGAAAGUAUUAUGUUACGCCGUUCGGAUCUG` has a log2 enrichment of -0.601.
`UAGCAAGCCAAAUUACAGCAGCAGAUGGACCUGCAGAAAAAUCACAUUUUCCGUCUGACUCAAGGACUGCAAGAAGCUCUAGAUCGGGCU` gave a log2 enrichment of -1.99.
The log2 enrichment of `GUCCUGUGCUACACAUCGUAUGUACCGAAUCGGGUUUGGGUUUUUUUGGGAAAAAGGGAAAGUAUUAUGUUACGCCGUUCGGAUCUGCAC` is reported as 0.0634.
With `GCAGGAAGUAGAAACAAAUGGAAAUGCUUCGGAUAGUGGCAGGGGUGGGGGUUGCUAAGGAAAGGGUGGGAUGGGAGUGGGUAAAGAGUU` the log2 enrichment was 0.787.
`UGGCCCUGGUGGCAUGCGGGGAGGAAGAGGUGGCCUCGUGGAUCGUGGUGGUCCCGGUGGAAUGUUCAGAGGUGGCCGUGGUGGAGACAG` gave a log2 enrichment of 0.0353.
`UCCUGUGCUACACAUCGUAUGUACCGAAUCGGGUUUGGGAAAAAAAGGGAAAAAAAGGGAAAGUAUUAUGUUACGCCGUUCGGAUCUGCA` gave a log2 enrichment of 0.0351.
The log2 enrichment of `AAGUCCUGUGCUACACAUCGUAUGUACCGAAUCGGGUGGGAAAAAGGGAAAAAGGGAAAGUAUUAUGUUACGCCGUUCGGAUCUGCACUU` is reported as 0.382.

Repeated from above (study 1):
TSSK2 (Homo sapiens, UniProt Q96PF2) — remaining activity: 98.1%.
For PHKG1 (Homo sapiens, UniProt Q16816): remaining activity read 87.6%.
